# Experimental data collected from several papers.
# Protocols differ between the studies behind these lines.
# TDP1: Tyrosyl-DNA phosphodiesterase 1 (TDP1, Homo sapiens, UniProt Q9NUW8)
# UniProt Q9NUW8, sequence (whole entry, looked up): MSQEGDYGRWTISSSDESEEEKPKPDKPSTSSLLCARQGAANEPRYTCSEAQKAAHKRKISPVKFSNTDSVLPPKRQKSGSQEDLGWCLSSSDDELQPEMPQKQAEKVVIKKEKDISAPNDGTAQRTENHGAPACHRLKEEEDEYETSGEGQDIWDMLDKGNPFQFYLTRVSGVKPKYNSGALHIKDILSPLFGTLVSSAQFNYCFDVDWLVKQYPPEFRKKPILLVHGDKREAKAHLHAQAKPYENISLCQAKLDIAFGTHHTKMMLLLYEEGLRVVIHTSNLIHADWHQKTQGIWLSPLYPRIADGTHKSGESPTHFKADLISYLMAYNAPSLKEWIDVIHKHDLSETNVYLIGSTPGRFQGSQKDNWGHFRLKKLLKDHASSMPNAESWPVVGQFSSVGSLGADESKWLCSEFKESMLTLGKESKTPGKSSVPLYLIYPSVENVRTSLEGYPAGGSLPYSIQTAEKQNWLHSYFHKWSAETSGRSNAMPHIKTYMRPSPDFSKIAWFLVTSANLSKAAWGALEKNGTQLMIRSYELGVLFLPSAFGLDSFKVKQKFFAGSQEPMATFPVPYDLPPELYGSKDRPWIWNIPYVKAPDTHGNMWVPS
Structure (SMILES),tested on,test,system,setting,quantity,value
CCCCN1C(=O)c2cccc3c(NCCCCCN4CCOCC4)ccc(c23)C1=O,,,DMSO,,emission maximum,533 nm
O=c1cc(/C=C/c2ccc(N3CCCC3)cc2)oc(/C=C/c2ccc(N3CCCC3)cc2)c1,,,acetonitrile/water 1:19 v/v,"10 µM, 298 K, aggregate nanoparticle suspension",emission maximum,599 nm
CC(C)(C)S(=O)(=O)c1ccccc1C=NOCc1ccc(-c2nc3cc(-c4ccccc4)ccn3c2Nc2ccc(C(=O)O)cc2)cc1,TDP1,"enzyme activity, inhibitor",,"100 µM, unpurified compound",inhibition,71.4%
O=c1cc(/C=C/c2ccc(N3CCOCC3)cc2)oc(/C=C/c2ccc(N3CCOCC3)cc2)c1,,,acetonitrile,"10 µM, 298 K",emission maximum,557 nm
COc1ccc2nc(-c3ccc(N(C)C)cc3)sc2c1,,,PBS,free dye,emission maximum wavelength,432 nm
CC1(C)C(/C=C/C2=C(Cl)C(=C/C=C3/N(CCCCCC(=O)O)c4ccccc4C3(C)C)/C[N+](C)(C)C2)=[N+](CCCCCC(=O)O)c2ccccc21,,,water,,emission maximum,765 nm
CCCCN1C(=O)c2cccc3c(NCCCCCCCCCCN4CCOCC4)ccc(c23)C1=O,,,acetonitrile,,emission maximum,524 nm
O=c1cc(/C=C/c2ccc(N(c3ccccc3)c3ccccc3)cc2)oc(/C=C/c2ccc(N(c3ccccc3)c3ccccc3)cc2)c1,,,acetonitrile/water 1:19 v/v,"10 µM, 298 K, aggregate nanoparticle suspension",emission maximum,565 nm
CC1(C)C(=CC=C2CCCC(C=CC3=[N+](CCC[N+](C)(C)C)c4ccc(S(=O)(=O)O)cc4C3(C)C)=C2SCCOCCOCCC(=O)O)N(CCC[N+](C)(C)C)c2ccc(S(=O)(=O)O)cc21,,,PBS,pH 7.4,emission maximum wavelength,807 nm
O=C(O)c1ccc(Nc2c(-c3ccc(CON=Cc4c(Cl)c5cc(Cl)ccc5oc4=O)cc3)nc3cc(-c4ccccc4)ccn23)cc1 (mixture of isomers),TDP1,"enzyme activity, inhibitor",,"100 µM, unpurified compound",inhibition,99.4%
COC(=O)c1ccccc1-c1c2ccc(=O)cc-2oc2c1ccc1cccc(N)c12,,,HCl 12.5 mM,"pH 1.9, 10% DMSO",emission maximum,770 nm
